Results from different studies.
Lines come from different studies, so protocols differ. Several values in a cell are separate wells, animals, samples, runs or records. Numbers after ± are the reported error.

SMILES	assay	test system	conditions	how to read	quantity	value
CC(CCC(=O)NCc1ccc(C(=O)NO)cc1)C1CCC2C3C(O)CC4CC(O)CCC4(C)C3CCC12C (stereo not drawn)	measured: TCA	PCK rat (Pkhd1 mutant), peripheral blood	oral gavage, dose not given, 5 months	reference: total bile acids	relative abundance	24.5%
CN1CCC[C@]1(C)/C=C/S(=O)(=O)NC(=O)Nc1c2c(cc3c1CCC3)CCC2		human, whole blood ex vivo	12.5 mg twice daily, day 1, 3 h, multiple ascending dose, together with: LPS and ATP		IL-18 inhibition	113%
COC1CN([C@H]2CC[C@H]([C@@]3(C)Oc4c(Cl)cc(C(=O)NCc5c(SC)cc(C)[nH]c5=O)c(C)c4O3)CC2)C1	RNA-seq, measured: NOS1AP	human, whole blood	dose not given, 24 h	reference: pretreatment baseline	log2 fold change	2.42
CC(=O)[O-].O.O.O.O.[Mn+2].[O-]c1ccc(Br)cc1C=NCCN1CCOCC1	nitric oxide scavenging		80 µM		inhibition	16.6%
CN1CCCNC(=O)c2cccc(c2)C(=O)NCCCN(C)CCCNc2cccc3c2C(=O)c2cccc(c2C3=O)NCCC1		KSN/Slc nude mice, SAS xenograft	dose not given, day 6, 144 h		tumour volume	180 mm3 and 181 mm3 and 307 mm3 and 178 mm3
COCCNCCOc1cc(C)cc(C(C)C)c1	locomotor activity in dark	Danio rerio larvae, 7 dpf, well of 10 larvae	10 µM, minute 3, dark		third-quartile larval motion	6.7 ± 0.7 pixels/frame
NNC(=O)Cc1ccccc1	hydrazine ligation kinetics, absorbance		concentration not given, 40 s, together with: 2-formylphenylboronic acid		normalised absorbance	0.72
CCC(CC)n1c(Cc2ccco2)nc2cc(C(=O)N[C@@H](CC(=O)O)c3ccccc3)ccc21		mouse, HFpEF model (HFD plus L-NAME)	ip, 20 mg/kg/day, 2 wk		myocardial capillary density	increased
CC(C)OC(=O)[C@H](CO)NCc1cc(Cl)c(OCc2cccc(-c3ccccc3)c2Br)cc1OCc1cccnc1		hPD-L1 MC-38 tumour, humanised hPD-1 C57BL/6 mouse	oral, 2.5 mg/kg × 21, day 20		tumour volume	1770 ± 919 mm³
COc1cnc2cccc(N3CCc4c(cc(Cn5ccnc5)cc4-c4cn(C)nc4C(F)(F)F)C3=O)c2c1		BALB/c nude mice, MV4-11 xenograft	intraperitoneal, 100 mg/kg, day 24		tumour volume	168 mm3 and 124 mm3 and 148 mm3 and 93 mm3 and 91 mm3
COc1ccccc1-c1ccncc1C(=O)Nc1nnc(OCc2ccc(Cl)cc2)s1		Brca1 Δ11/Δ11 Polq-/- MEF, Mus musculus	1.25 µM	reference: 0 µM	colony survival	92.7%
Cc1ccc(S(=O)(=O)NN)cc1	hydrazine ligation kinetics, absorbance		concentration not given, 20 s, together with: 2-formylphenylboronic acid		normalised absorbance	0.745
CC[C@H](C)[C@@H](C(=O)N[C@@H](CC(C)C)C(=O)N[C@@H](CO)C(=O)N[C@@H](CO)C(=O)N[C@H](C(=O)N[C@@H](CCC(=O)O)C(=O)N[C@H](C(=O)NCC(=O)N[C@@H](CO)C(=O)N[C@@H](CC(N)=O)C(=O)N[C@H](C(=O)N1C[C@H](O)C[C@H]1C(N)=O)[C@@H](C)O)C(C)C)[C@@H](C)O)N(C)C(=O)[C@H](C)NC(=O)CN(C)C(=O)[C@H](Cc1ccccc1)NC(=O)[C@H](CO)NC(=O)[C@H](CO)NC(=O)[C@H](CCCNC(=N)N)NC(=O)[C@H](CC(N)=O)NC(=O)[C@H](CC(C)C)NC(=O)[C@H](Cc1ccccc1)NC(=O)[C@H](Cc1c[nH]cn1)NC(=O)[C@H](C)NC(=O)[C@H](CC(C)C)NC(=O)[C@H](CCCNC(=N)N)NC(=O)[C@H](CCC(=O)O)NC(=O)[C@@H](NC(=O)[C@H](C)NC(=O)[C@@H]1CSSC[C@H](NC(=O)[C@H](CCCNC(=N)N)NC(=O)CC[C@H](NC(=O)CCCCCCCCCCCCCCCCCCC(=O)O)C(=O)O)C(=O)NCC(=O)N[C@@H]([C@@H](C)O)C(=O)N[C@@H](C)C(=O)N[C@@H]([C@@H](C)O)C(=O)N1)[C@@H](C)O		male Sprague-Dawley rats	subcutaneous, 30 nmol/kg single dose, 96 h		body weight loss	10.2 ± 0.4%
CCOC(=O)NN	hydrazine ligation kinetics, absorbance		concentration not given, 50 s, together with: 2-formylphenylboronic acid		normalised absorbance	0.849
Oc1cc2c(cc1O)C(c1ccccc1)NCC2 (stereo not drawn)	DPPH scavenging, absorbance		30 min, dark		IC50	28.1 µM
CCCCCCCCCCCCCCCC(=O)OCC(CSC[C@H](N)C(=O)N[C@@H](CO)C(=O)N[C@@H](CCCCN)C(=O)N[C@@H](CCCCN)C(=O)N[C@@H](CCCCN)C(=O)N[C@@H](CCCCN)C(=O)NCCCCCC(=O)N[C@@H](CCCCN)C(=O)N[C@@H](CC(C)C)C(=O)N[C@H](C(=O)N[C@@H](Cc1ccccc1)C(=O)N[C@@H](Cc1ccccc1)C(=O)N[C@@H](Cc1ccc2ccccc2c1)C(=O)O)C(C)C)OC(=O)CCCCCCCCCCCCCCC (stereo partly drawn)		APP/PS1 transgenic mouse, cortex	intracortical injection, dose not given		Iba1-positive area	33.9% and 35% and 37.3%
O=C(NCC1OC2CCC=CCCC2O1)c1ccc(F)nc1 (stereo not drawn)	IEDDA cycloaddition, substrate, stopped-flow spectrophotometry	water/methanol 45:55	1 mM, 298 K, together with: 3,6-di(2-pyridyl)-tetrazine 0.05 mM		observed rate constant kobs	233 ± 8.16 s⁻¹
COc1ccc(N2CCN(CC(O)COc3ccc4ccccc4c3)CC2)cc1 (stereo not drawn)	locomotor activity in dark	Danio rerio larvae, 7 dpf, well of 10 larvae	10 µM, minute 5, dark		third-quartile larval motion	4.2 ± 0.9 pixels/frame
c1ccc(CN2Cc3cccc(n3)CN(Cc3ccccn3)Cc3cccc(n3)C2)nc1	HPLC	water	25 °C, Mn complex dissociation, together with: 25 equiv Zn2+		transmetallation rate constant	0.0017 s⁻¹
COc1cc(/C=C2\CNC/C(=C\c3cc(Cl)c(O)c(OC)c3)C2=O)cc(Cl)c1O		BV-2, mouse	1 µM, 24 h, together with: LPS	reference: LPS model	NO release	no effect
Cc1ccc(C)c(OCC(O)CN2CCN(c3cc(Cl)ccc3C)CC2)c1 (stereo not drawn)	locomotor activity in dark	Danio rerio larvae, 7 dpf, well of 10 larvae	10 µM, minute 5, dark		third-quartile larval motion	0.2 ± 0.2 pixels/frame
COc1cc(O)ccc1CCC(c1ccc(O)cc1)c1cc2c(c(C)c1O)OC(c1ccc(O)cc1)CC2 (mixture of isomers)	measured: 5,15-diHETE	human whole blood	0.3 µM, together with: Escherichia coli		amount	64 ± 10 pg/mL blood
COc1ccccc1C1CCN(CCC(=O)Nc2ccc(C)c(C)c2)CC1	locomotor activity in dark	Danio rerio larvae, 7 dpf, well of 10 larvae	10 µM, minute 3, dark		third-quartile larval motion	2.2 ± 0.6 pixels/frame
CCOCc1ccc(O[C@@H]2O[C@@H](C)[C@H](O)[C@@H](O)[C@H]2O)cc1	ABTS radical		300 µg/mL		radical scavenging	11.5 ± 0.4%

A few entries again:
SMILES	assay	test system	conditions	how to read	quantity	value
Oc1cc2c(cc1O)C(c1ccccc1)NCC2 (stereo not drawn)	DPPH scavenging, absorbance		30 min, dark		IC50	28.1 µM
CCCCCCCCCCCCCCCC(=O)OCC(CSC[C@H](N)C(=O)N[C@@H](CO)C(=O)N[C@@H](CCCCN)C(=O)N[C@@H](CCCCN)C(=O)N[C@@H](CCCCN)C(=O)N[C@@H](CCCCN)C(=O)NCCCCCC(=O)N[C@@H](CCCCN)C(=O)N[C@@H](CC(C)C)C(=O)N[C@H](C(=O)N[C@@H](Cc1ccccc1)C(=O)N[C@@H](Cc1ccccc1)C(=O)N[C@@H](Cc1ccc2ccccc2c1)C(=O)O)C(C)C)OC(=O)CCCCCCCCCCCCCCC (stereo partly drawn)		APP/PS1 transgenic mouse, cortex	intracortical injection, dose not given		Iba1-positive area	33.9% and 35% and 37.3%
O=C(NCC1OC2CCC=CCCC2O1)c1ccc(F)nc1 (stereo not drawn)	IEDDA cycloaddition, substrate, stopped-flow spectrophotometry	water/methanol 45:55	1 mM, 298 K, together with: 3,6-di(2-pyridyl)-tetrazine 0.05 mM		observed rate constant kobs	233 ± 8.16 s⁻¹
COc1ccc(N2CCN(CC(O)COc3ccc4ccccc4c3)CC2)cc1 (stereo not drawn)	locomotor activity in dark	Danio rerio larvae, 7 dpf, well of 10 larvae	10 µM, minute 5, dark		third-quartile larval motion	4.2 ± 0.9 pixels/frame
